Experimental data pooled from the literature.
Numbered parts are unrelated; each lists some results of a single study. ± gives the spread as reported.

Sample 1
Target: icaR full length assumed (Staphylococcus epidermidis, UniProt Q5HKQ1)
Method: EMSA
Form: double-stranded DNA, one strand shown
Measurement: binding
Library: dsDNA
Construct (chain): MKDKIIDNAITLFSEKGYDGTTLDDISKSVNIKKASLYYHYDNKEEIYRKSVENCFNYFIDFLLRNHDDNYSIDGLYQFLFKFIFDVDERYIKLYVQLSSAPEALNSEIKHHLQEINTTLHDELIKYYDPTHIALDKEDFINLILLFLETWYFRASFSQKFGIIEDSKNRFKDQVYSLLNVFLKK
AACCTAACTAACGTTAGTTAGGTT: binds
ACTAACGAAAGGTAGGTGAAAAAATGCA: binds
CTTTACAACCTAACTAACGAAAGGTAGG: binds
TTCACCTACCTTTCGAAAGGTAGGTGAA: binds
AGCATATGCTTTACAACCTAACTAACGA: no binding

Mixed results
mwoIR full length assumed: mwoIR full length assumed (Methanothermobacter wolfeii, UniProt O59646)
Sequence of UniProt O59646 (whole entry, unmodified, looked up): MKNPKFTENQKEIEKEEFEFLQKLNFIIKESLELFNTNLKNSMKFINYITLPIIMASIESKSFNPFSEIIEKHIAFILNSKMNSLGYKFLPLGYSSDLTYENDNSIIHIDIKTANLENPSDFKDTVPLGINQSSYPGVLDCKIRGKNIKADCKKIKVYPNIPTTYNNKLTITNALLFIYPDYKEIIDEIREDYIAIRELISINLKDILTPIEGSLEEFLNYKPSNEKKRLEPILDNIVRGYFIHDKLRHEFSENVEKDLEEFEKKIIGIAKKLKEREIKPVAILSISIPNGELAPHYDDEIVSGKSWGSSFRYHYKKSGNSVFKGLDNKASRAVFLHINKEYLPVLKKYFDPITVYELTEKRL
gene 4 protein primase domain, 1-271: gene 4 protein primase domain, 1-271 (Escherichia phage T7, UniProt P03692)
Sequence of UniProt P03692 (whole entry, looked up): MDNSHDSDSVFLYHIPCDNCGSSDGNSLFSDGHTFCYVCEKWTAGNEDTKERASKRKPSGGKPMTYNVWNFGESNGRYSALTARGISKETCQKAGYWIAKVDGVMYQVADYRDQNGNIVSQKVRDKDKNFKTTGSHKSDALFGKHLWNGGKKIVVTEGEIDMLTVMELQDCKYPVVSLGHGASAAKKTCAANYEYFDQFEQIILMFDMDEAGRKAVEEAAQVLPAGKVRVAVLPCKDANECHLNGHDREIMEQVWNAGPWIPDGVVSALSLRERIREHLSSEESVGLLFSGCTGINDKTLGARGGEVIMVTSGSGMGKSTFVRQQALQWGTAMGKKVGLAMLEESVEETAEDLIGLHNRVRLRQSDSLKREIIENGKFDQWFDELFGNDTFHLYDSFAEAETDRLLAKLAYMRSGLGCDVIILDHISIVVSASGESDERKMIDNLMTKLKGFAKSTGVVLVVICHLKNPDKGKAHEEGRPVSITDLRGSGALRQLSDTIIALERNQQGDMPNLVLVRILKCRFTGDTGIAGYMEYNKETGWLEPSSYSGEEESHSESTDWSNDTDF
GACAGTGCGATCTCCGCGACAGT (dsDNA) — Kd (mwoIR full length assumed; filter binding; double-stranded DNA, one strand shown; together with: Ca2+ 10 mM): 0.00734 ± 0.00166 nM
CGTAATCTGCAGGCATGGTGAATTT (ssDNA) — binding (gene 4 protein primase domain, 1-271; SPR; single-stranded DNA; together with: preformed ACCA RNA): binds
GACAGTGCTATCTCAGCGACAGT (dsDNA) — Kd (mwoIR full length assumed S310E (Methanothermobacter wolfeii, UniProt O59646); filter binding; double-stranded DNA, one strand shown; together with: Ca2+ 10 mM): 46 ± 4.4 nM
CGTAATCTGCAGGCATGGTCAATTT (ssDNA) — Kd (gene 4 protein primase domain, 1-271; SPR; single-stranded DNA; together with: ATP 0.2 mM, CTP 0.2 mM, Mg2+ 10 mM): 22000 ± 1800 nM
GACAGTGCAATCTCTGCGACAGT (dsDNA) — Kd (mwoIR full length assumed S310R (Methanothermobacter wolfeii, UniProt O59646); filter binding; double-stranded DNA, one strand shown; together with: Ca2+ 10 mM): 110 ± 46.8 nM
ATAATTAACTAAACTTAATTAA (dsDNA) — binding (Manganese transport regulator 1-215 (Streptococcus pyogenes, UniProt A0A0H2UTK0); fluorescence polarization; double-stranded DNA, one strand shown; stoichiometry titration): binds
GACAGTGCCATCTCGGCGACAGT (dsDNA) — Kd (mwoIR full length assumed; filter binding; double-stranded DNA, one strand shown; together with: Ca2+ 10 mM): 0.00234 ± 0.00102 nM

A few entries again (mixed results):
GACAGTGCGATCTCCGCGACAGT (dsDNA) — Kd (mwoIR full length assumed; filter binding; double-stranded DNA, one strand shown; together with: Ca2+ 10 mM): 0.00734 ± 0.00166 nM
